Measurements of several laboratories.
Protocols differ between the studies behind these lines. ± marks the error that the study gave.
PLG: Plasminogen (PLG, Homo sapiens, UniProt P00747)
Sequence of UniProt P00747 (whole entry, looked up): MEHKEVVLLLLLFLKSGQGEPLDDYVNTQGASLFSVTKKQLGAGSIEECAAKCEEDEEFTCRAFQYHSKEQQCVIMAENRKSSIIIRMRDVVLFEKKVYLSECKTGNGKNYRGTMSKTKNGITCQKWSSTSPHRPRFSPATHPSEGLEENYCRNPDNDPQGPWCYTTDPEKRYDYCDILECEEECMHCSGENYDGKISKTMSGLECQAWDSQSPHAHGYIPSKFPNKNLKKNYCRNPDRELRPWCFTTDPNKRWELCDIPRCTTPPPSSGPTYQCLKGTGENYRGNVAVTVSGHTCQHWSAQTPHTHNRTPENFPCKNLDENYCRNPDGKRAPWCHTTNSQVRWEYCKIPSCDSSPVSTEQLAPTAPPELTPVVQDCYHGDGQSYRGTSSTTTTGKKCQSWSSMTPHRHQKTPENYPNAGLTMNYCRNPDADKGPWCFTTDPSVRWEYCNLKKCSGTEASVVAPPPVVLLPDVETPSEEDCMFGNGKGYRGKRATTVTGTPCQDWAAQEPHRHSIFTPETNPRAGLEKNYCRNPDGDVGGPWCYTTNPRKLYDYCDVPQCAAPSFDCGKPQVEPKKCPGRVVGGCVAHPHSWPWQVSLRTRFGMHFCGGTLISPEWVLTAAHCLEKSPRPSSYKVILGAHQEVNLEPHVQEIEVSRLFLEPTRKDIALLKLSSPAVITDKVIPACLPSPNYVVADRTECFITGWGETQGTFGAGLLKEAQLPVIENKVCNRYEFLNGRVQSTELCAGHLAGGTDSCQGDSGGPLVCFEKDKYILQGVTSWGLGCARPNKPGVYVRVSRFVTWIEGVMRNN
Sequence of UniProt Q9HC97 (whole entry, looked up): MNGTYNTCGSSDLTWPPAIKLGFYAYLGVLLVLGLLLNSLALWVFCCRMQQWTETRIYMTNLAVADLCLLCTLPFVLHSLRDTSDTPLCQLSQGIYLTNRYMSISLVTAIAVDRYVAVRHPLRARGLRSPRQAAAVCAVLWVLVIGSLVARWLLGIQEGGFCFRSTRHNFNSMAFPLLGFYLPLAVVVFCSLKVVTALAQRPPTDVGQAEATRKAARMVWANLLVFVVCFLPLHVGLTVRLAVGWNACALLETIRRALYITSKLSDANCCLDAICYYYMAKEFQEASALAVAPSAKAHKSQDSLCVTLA
Sequence of UniProt O75164 (whole entry, looked up): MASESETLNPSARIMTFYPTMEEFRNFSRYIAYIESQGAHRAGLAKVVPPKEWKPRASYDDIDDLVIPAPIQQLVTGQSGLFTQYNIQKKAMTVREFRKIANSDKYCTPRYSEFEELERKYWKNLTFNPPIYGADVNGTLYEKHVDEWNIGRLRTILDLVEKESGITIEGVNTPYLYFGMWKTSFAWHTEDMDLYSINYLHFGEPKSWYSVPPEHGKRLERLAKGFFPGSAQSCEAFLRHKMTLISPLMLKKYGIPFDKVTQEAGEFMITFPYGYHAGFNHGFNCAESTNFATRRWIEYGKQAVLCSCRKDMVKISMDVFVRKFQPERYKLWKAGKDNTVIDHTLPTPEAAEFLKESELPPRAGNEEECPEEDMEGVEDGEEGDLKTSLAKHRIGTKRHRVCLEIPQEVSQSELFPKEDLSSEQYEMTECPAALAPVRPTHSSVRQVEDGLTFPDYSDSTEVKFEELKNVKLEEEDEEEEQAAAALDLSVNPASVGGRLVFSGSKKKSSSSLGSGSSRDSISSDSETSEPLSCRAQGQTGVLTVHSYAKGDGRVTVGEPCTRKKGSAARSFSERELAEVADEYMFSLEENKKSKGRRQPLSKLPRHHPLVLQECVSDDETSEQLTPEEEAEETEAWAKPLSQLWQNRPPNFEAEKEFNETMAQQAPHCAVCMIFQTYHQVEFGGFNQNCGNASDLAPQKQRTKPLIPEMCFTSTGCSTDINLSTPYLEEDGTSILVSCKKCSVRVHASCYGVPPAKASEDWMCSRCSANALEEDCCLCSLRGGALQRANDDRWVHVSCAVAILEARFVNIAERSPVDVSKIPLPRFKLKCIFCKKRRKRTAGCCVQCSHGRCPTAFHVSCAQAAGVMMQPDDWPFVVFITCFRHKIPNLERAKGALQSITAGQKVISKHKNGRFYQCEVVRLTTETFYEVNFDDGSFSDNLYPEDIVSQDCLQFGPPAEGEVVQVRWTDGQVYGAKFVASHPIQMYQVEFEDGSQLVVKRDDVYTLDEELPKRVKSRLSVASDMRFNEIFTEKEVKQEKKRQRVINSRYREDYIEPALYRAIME

Structure (SMILES)	target or system	test	test system	setting	scale	endpoint	value
Cc1ccc(C=NNC(=S)N[N+](=O)[O-])cc1	Leishmania tropica	parasite growth, MTT		72 h, promastigote		IC50	331 µM
CCCC(CCC)C(=O)O			mouse, pilocarpine-induced seizures	oral, 300 mg/kg, 120 min after pilocarpine	direction not given	Racine score	1.9 ± 0.57
N=C(N)c1ccc(CNC(=O)CCOCCOCCOCCOCCNC(=O)CN(CC(=O)NCCOCCOCCOCCOCCC(=O)NCc2ccc(C(=N)N)cc2)CC(=O)NCCOCCOCCOCCOCCC(=O)NCc2ccc(C(=N)N)cc2)cc1	PLG	enzyme activity, inhibitor, absorbance		pH 7.4		Ki	50.5 µM
O=C(O)CCCCC(=O)OCn1cc(F)c(=O)[nH]c1=O	Caco-2 butyrate-induced			added: MCT1 inhibitor 2.5 mM	reference: without inhibitor	fold decrease in uptake	5.8 fold
COCCOCCOCCOCCOCCOCCOCCOCCOCCOCCOCCOCCOCCOCCOCCOCCOCCOCCOCCOCCOCCOCCOCCOCCOCCC(=O)NCc1ccc(C(=N)N)cc1	PLG	enzyme activity, inhibitor, absorbance		pH 7.4		Ki	521 µM
COC(=O)c1cnn(-c2ccc(F)cc2F)c1C=NNC(=S)NC(C)(C)C	GPR35 (Homo sapiens, UniProt Q9HC97)	dynamic mass redistribution, antagonist	HT-29	added: DHPG 1 mM		IC50	1.97 ± 0.15 µM
CC(=O)N[C@@H](Cc1c[nH]c2ccccc12)C(=O)N[C@@H](CCC(=O)C=[N+]=[N-])C(=O)OC(C)C			C57BL/6 CES1-/- mouse plasma	20 µM, 60 min, 37 °C		remaining compound	> 90%
CCCCc1oc2ccccc2c1C(=O)c1cc(I)c(OCCN)c(I)c1	Lysine-specific demethylase 4A, double tudor domain (KDM4A, Homo sapiens, UniProt O75164)	fluorescence polarization				IC50	72 ± 26 µM

Excerpt of the above:
Structure (SMILES)	target or system	test	test system	setting	scale	endpoint	value
COC(=O)c1cnn(-c2ccc(F)cc2F)c1C=NNC(=S)NC(C)(C)C	GPR35 (Homo sapiens, UniProt Q9HC97)	dynamic mass redistribution, antagonist	HT-29	added: DHPG 1 mM		IC50	1.97 ± 0.15 µM
